Measured values of several laboratories.
Parts stem from different laboratories: compare values within a part only. Changes are numbered by the printed parent chain.
Sequence of UniProt Q9H093 (whole entry, looked up): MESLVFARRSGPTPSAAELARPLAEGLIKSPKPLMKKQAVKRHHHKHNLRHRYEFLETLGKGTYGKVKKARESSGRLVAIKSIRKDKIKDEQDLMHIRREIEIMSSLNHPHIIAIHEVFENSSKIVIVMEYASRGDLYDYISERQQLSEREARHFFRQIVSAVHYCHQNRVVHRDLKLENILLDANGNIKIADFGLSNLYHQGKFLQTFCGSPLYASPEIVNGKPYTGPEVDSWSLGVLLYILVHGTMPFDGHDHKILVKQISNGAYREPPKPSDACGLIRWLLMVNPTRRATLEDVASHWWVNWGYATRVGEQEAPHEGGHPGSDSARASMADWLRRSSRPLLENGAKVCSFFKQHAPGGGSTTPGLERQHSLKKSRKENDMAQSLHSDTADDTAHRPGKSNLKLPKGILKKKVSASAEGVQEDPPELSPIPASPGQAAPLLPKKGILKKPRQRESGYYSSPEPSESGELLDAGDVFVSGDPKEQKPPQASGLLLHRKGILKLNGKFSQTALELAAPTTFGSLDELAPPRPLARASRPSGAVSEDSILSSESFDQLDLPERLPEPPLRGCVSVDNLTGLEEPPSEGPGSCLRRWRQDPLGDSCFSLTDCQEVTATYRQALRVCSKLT
Sequence of UniProt P78362 (whole entry, looked up): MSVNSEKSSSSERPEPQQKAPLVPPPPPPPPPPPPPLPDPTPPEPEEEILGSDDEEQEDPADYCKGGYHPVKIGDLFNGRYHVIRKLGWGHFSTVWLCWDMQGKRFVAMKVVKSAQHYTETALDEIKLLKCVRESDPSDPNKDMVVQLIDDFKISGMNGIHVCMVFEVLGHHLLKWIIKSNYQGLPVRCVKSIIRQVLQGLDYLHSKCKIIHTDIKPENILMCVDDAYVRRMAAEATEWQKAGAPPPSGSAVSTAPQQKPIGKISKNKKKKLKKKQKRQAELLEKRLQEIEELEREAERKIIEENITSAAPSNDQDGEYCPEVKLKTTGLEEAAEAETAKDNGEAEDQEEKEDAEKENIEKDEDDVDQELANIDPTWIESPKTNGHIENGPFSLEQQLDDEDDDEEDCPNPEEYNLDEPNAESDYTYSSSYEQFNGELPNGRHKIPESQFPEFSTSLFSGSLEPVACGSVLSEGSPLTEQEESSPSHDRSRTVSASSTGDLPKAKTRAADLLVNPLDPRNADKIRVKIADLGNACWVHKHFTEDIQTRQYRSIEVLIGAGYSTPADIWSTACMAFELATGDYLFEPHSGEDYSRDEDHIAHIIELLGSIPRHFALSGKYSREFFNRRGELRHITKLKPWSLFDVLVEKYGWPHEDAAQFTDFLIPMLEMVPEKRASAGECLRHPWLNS
Sequence of UniProt Q00534 (whole entry, looked up): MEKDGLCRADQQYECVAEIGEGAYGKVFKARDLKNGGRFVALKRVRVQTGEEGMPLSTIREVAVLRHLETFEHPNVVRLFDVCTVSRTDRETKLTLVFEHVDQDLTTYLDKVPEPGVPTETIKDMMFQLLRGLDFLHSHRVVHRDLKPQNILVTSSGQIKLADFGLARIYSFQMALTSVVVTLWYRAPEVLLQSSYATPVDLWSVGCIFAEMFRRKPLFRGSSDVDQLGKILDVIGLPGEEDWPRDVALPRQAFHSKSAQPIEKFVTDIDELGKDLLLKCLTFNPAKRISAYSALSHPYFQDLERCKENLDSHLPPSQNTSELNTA
Sequence of UniProt Q96RG2 (whole entry, looked up): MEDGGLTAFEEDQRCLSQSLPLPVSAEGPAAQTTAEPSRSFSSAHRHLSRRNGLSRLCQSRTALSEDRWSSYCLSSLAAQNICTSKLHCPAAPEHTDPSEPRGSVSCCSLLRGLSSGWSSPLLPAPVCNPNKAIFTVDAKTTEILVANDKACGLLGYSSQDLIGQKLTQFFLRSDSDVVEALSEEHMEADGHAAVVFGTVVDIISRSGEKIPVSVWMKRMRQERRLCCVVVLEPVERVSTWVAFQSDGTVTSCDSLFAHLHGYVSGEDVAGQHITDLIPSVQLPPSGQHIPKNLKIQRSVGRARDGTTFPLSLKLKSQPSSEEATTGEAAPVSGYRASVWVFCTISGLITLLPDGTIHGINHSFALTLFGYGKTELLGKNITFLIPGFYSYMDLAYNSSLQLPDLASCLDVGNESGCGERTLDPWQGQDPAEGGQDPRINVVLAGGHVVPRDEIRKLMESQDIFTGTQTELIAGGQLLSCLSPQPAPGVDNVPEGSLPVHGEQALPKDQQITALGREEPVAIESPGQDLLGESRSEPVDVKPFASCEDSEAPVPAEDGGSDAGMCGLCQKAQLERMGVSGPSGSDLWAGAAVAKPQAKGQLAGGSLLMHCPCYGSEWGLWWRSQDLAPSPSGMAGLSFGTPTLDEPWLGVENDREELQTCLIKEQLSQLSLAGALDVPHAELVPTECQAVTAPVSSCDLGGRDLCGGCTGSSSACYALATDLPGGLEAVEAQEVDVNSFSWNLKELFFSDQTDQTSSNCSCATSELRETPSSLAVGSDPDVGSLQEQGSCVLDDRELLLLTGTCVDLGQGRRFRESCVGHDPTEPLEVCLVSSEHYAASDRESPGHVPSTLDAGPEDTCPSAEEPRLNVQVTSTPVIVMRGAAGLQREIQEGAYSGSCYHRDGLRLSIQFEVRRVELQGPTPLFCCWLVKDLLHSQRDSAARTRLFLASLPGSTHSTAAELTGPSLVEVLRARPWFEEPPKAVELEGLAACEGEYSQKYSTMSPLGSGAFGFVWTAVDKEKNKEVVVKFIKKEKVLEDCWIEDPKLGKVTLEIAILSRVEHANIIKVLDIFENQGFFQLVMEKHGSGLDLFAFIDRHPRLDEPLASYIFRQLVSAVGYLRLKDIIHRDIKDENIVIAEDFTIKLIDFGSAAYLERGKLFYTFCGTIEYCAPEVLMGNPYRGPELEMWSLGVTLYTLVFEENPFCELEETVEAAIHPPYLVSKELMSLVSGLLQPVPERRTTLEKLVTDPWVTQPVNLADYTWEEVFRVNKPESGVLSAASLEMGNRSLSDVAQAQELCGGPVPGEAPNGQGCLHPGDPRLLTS
Sequence of UniProt P21917 (whole entry, looked up): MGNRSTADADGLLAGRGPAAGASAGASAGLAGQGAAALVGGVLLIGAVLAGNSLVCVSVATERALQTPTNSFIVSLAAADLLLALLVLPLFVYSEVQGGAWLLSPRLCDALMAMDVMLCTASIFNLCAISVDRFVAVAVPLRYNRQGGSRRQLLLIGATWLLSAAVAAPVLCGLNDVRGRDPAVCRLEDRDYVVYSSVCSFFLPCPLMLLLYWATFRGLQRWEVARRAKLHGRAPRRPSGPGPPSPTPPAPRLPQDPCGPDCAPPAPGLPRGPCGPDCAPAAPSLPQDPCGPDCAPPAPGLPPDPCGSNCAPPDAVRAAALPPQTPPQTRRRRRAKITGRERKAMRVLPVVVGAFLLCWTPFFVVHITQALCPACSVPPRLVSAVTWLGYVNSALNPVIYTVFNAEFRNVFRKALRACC
Sequence of UniProt Q16566 (whole entry, looked up): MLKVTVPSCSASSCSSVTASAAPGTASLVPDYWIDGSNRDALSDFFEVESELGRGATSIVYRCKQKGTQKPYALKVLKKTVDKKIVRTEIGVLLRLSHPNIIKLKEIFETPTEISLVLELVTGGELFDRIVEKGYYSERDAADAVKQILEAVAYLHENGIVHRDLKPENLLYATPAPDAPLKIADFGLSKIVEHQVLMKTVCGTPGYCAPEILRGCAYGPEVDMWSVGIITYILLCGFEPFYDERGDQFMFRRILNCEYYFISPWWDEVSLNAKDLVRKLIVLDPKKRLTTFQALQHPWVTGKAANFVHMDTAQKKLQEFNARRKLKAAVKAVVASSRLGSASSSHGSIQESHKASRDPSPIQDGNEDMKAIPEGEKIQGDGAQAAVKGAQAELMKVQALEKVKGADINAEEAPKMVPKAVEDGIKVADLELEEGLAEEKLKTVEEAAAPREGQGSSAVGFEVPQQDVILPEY
Sequence of UniProt Q96KB5 (whole entry, looked up): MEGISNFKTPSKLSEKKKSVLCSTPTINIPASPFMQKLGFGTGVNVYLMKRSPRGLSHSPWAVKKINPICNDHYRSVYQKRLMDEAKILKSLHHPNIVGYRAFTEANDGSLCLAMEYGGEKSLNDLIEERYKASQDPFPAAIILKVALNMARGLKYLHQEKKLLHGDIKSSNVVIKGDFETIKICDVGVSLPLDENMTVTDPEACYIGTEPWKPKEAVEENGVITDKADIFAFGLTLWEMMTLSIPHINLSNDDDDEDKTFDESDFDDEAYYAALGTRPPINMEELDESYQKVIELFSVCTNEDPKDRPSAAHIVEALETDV
Sequence of UniProt P34947 (whole entry, looked up): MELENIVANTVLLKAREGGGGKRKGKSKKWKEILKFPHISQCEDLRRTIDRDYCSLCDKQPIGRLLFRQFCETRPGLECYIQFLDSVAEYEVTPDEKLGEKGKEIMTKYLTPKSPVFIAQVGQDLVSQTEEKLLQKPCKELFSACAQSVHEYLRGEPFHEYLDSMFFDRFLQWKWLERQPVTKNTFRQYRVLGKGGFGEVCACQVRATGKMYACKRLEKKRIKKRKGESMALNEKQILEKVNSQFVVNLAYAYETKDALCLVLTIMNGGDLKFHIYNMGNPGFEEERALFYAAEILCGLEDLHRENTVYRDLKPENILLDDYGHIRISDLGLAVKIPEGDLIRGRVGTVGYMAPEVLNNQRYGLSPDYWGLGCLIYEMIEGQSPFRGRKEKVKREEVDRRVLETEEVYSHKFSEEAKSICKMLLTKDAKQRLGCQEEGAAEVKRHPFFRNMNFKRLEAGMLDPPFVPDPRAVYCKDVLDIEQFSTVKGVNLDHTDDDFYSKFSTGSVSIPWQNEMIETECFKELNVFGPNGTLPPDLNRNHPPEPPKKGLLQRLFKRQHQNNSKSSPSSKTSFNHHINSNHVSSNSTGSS

Study 1
Target: CCNB2, cyclin fold, Cln2 fusion (human)
Method: yeast growth competition, sequencing
Matrix: yeast
Setting: weak parent motif
Relative to: not given
Direction: higher = stronger binding
Starting sequence: viral docking peptide; KGVKRKLFAEDSS; partner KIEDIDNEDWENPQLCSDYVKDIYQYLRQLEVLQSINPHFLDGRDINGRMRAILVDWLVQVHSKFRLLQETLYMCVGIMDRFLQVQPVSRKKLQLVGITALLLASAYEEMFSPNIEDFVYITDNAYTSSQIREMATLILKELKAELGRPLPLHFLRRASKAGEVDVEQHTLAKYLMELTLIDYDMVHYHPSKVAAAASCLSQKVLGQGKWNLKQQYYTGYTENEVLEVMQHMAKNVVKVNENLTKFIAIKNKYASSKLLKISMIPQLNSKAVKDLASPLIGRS
Under “normalised enrichment score”, `K6F` is recorded as 0.284.
For `R5K`, “normalised enrichment score” read 0.657.
`K4C` — result for “normalised enrichment score”: 0.402.
`F8G` — result for “normalised enrichment score”: 0.802.
For `G2A`, “normalised enrichment score” read 0.561.
Under “normalised enrichment score”, `S12F` is recorded as 1.01.
For `L7W`, “normalised enrichment score” read -0.114.
Under “normalised enrichment score”, `K6Y` is recorded as 0.24.

Study 2
Organism: Sarcocystis neurona
Read-out: parasite growth
Concentration: concentration not given
Setting: second screen
Relative to: untreated
For C=C(C)CN1CC[C@]23c4c5ccc(O)c4O[C@H]2c2[nH]c4ccccc4c2C[C@@]3(O)C1C5.Cl.O, “log2 fold change” read 0.51.
Under “log2 fold change”, Cl.OC1CCCCC1N1CCC(c2ccccc2)CC1 (racemic) is recorded as 0.46.
For CN1CC[C@@H](c2ccc(F)cc2)[C@H](COc2ccc3c(c2)OCO3)C1, “log2 fold change” read 0.21.

Study 3
SMILES: O=c1[nH]c2ccccc2n1C1CCN(Cc2ccc(-c3[nH]c4cc5ncnc5cc4nc3-c3ccccc3)cc2)CC1
Read-out: cell-free assay
Concentration: 0.5 µM
The remaining signal was 111% (CLK3 (Homo sapiens, UniProt P49761)).
ACVRL1 (Homo sapiens, UniProt P37023) — remaining signal: 105%.
For MAP4K5 (Homo sapiens, UniProt Q9Y4K4): remaining signal read 91.9%.
For CAMK2G (Homo sapiens, UniProt Q13555): remaining signal read 105%.
The remaining signal was 95.5% (PNCK (Homo sapiens, UniProt Q6P2M8)).
For PBK (Homo sapiens, UniProt Q96KB5): remaining signal read 103%.
For NUAK2 (Homo sapiens, UniProt Q9H093): remaining signal read 90.4%.
The remaining signal was 101% (CAMK4 (Homo sapiens, UniProt Q16566)).
It gave 110% for remaining signal (PASK (Homo sapiens, UniProt Q96RG2)).
The remaining signal was 96.9% (Cyclin-dependent kinase 5, with p25 (CDK5, Homo sapiens, UniProt Q00535)).
It gave 90.1% for remaining signal (CHUK (Homo sapiens, UniProt O15111)).
The remaining signal was 99.1% (Cyclin-dependent kinase 6, with cyclin D3 (CDK6, Homo sapiens, UniProt Q00534)).
It gave 98% for remaining signal (Cyclin-dependent kinase 2, with cyclin A (CDK2, Homo sapiens, UniProt P24941)).
HIPK3 (Homo sapiens, UniProt Q9H422) — remaining signal: 102%.
Cyclin-dependent kinase 1, with cyclin A (CDK1, Homo sapiens, UniProt P06493) — remaining signal: 102%.
For Cyclin-dependent kinase 7, with cyclin H (CDK7, Homo sapiens, UniProt P50613): remaining signal read 99.1%.
The remaining signal was 84.3% (PRKCA (Homo sapiens, UniProt P17252)).
DYRK3 (Homo sapiens, UniProt O43781) — remaining signal: 101%.
It gave 109% for remaining signal (GRK5 (Homo sapiens, UniProt P34947)).
It gave 116% for remaining signal (SRPK2 (Homo sapiens, UniProt P78362)).

Study 4
Target: HLA class I histocompatibility antigen, A alpha chain, allele A*80:01 (Homo sapiens, UniProt P04439)
Read-out: peptide-MHC binding
Molecule type: peptide
Concentration: concentration not given
Under binding, `KEGKLQCRI` is recorded as “inactive”.
`RVIRTVREK`: binding “inactive”.
For `LAVFPAMFW`, binding read “inactive”.
For `TMRTPLFPW`, binding read “inactive”.
`SPGDNSAKF` — result for binding: “inactive”.
For `KIFKVTGEF`, binding read “inactive”.
`ERYPGGVSL`: binding “inactive”.
For `TPSHYSGNI`, binding read “inactive”.

Mixed results
C[C@H](NC(=O)Nc1cc2[nH]ncc2c(CO)n1)c1ccccn1 gave an inhibition of 22.8% (OPRK1 (Homo sapiens, UniProt P41145); cell-free assay; 10 µM).
The remaining binding of O=C(NCc1ncc(C(F)(F)F)cc1Cl)c1ccc2c(c1)C1(CCS(=O)(=O)CC1)[C@@H](C1CC1)N2S(=O)(=O)c1ccc(F)cc1 is reported as 96% (STK32B (Homo sapiens, UniProt Q9NY57); cell-free assay, competition with immobilised ligand; 1 µM).
Cc1c(N2CCNCC2)nc2ccc(Br)cc2c1C(=O)NC[C@H](CCC(=O)O)c1ccccc1Cl gave an inhibition of 5.89% (DRD4 (Homo sapiens, UniProt P21917); ligand displacement; 10 µM).

Some of these lines once more (study 3):
The remaining signal was 96.9% (Cyclin-dependent kinase 5, with p25 (CDK5, Homo sapiens, UniProt Q00535)).
It gave 90.1% for remaining signal (CHUK (Homo sapiens, UniProt O15111)).
The remaining signal was 99.1% (Cyclin-dependent kinase 6, with cyclin D3 (CDK6, Homo sapiens, UniProt Q00534)).
It gave 98% for remaining signal (Cyclin-dependent kinase 2, with cyclin A (CDK2, Homo sapiens, UniProt P24941)).
HIPK3 (Homo sapiens, UniProt Q9H422) — remaining signal: 102%.
Cyclin-dependent kinase 1, with cyclin A (CDK1, Homo sapiens, UniProt P06493) — remaining signal: 102%.
For Cyclin-dependent kinase 7, with cyclin H (CDK7, Homo sapiens, UniProt P50613): remaining signal read 99.1%.
